# Assay results pooled from the literature.
# Every numbered part comes from another study and shows a few of its results, in no order.
# Chain of UniProt Q59H18 (whole entry, looked up): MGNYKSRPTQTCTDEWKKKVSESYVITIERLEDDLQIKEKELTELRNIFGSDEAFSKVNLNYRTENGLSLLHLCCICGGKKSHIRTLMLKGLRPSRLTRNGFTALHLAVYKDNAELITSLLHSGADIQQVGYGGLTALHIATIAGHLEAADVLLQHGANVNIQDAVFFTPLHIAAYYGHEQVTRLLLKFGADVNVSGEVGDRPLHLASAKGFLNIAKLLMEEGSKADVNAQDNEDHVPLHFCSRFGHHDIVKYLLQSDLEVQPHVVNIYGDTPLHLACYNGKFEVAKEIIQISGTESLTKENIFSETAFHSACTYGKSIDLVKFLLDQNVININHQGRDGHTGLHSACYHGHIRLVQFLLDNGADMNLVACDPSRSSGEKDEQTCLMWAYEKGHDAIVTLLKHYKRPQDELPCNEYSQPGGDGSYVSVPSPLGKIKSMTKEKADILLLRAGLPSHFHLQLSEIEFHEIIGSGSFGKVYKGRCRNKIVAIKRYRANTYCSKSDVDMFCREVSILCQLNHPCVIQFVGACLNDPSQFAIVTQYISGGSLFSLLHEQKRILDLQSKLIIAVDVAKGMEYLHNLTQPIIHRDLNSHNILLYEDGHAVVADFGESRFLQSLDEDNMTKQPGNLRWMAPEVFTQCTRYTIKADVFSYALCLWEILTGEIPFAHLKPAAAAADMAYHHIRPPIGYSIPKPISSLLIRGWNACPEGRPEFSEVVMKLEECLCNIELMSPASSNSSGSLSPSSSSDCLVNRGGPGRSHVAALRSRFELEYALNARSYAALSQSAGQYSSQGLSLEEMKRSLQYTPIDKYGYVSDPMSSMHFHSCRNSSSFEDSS
# Chain of UniProt O75116 (whole entry, looked up): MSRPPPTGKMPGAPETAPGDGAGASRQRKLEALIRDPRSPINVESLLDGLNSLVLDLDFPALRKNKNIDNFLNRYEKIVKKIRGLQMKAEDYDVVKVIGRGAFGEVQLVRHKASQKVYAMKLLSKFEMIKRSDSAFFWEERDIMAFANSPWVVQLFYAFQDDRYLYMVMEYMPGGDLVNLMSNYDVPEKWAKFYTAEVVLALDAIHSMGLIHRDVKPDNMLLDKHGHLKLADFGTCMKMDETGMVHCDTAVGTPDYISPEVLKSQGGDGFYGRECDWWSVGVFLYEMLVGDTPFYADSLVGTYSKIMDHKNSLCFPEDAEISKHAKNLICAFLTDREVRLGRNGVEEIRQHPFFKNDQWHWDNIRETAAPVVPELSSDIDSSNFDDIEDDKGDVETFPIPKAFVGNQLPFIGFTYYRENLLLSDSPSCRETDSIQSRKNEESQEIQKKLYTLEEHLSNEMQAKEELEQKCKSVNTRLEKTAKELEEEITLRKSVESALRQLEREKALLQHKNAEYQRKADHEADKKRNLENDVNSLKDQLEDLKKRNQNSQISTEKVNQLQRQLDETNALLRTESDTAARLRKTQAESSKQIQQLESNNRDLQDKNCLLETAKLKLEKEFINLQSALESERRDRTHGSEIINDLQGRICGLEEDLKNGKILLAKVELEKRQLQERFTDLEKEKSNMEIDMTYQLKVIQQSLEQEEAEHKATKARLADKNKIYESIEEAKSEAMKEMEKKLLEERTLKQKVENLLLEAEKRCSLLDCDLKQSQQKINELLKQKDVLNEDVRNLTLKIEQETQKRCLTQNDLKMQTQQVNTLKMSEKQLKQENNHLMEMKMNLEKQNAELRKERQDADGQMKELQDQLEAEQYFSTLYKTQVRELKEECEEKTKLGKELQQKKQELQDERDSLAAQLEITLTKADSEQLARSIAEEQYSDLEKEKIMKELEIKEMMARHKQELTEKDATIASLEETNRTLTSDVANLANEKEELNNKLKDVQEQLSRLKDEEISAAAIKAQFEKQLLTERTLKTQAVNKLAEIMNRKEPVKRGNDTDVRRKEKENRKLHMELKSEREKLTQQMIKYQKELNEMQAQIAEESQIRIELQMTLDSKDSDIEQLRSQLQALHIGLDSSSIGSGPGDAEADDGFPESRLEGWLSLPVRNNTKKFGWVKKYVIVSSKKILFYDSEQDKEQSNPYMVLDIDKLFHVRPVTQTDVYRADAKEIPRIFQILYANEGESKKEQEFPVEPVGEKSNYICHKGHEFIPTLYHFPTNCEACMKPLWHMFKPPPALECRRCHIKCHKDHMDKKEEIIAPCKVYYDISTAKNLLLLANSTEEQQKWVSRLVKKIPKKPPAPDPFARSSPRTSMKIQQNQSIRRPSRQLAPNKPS
# Chain of UniProt P42680 (whole entry, looked up): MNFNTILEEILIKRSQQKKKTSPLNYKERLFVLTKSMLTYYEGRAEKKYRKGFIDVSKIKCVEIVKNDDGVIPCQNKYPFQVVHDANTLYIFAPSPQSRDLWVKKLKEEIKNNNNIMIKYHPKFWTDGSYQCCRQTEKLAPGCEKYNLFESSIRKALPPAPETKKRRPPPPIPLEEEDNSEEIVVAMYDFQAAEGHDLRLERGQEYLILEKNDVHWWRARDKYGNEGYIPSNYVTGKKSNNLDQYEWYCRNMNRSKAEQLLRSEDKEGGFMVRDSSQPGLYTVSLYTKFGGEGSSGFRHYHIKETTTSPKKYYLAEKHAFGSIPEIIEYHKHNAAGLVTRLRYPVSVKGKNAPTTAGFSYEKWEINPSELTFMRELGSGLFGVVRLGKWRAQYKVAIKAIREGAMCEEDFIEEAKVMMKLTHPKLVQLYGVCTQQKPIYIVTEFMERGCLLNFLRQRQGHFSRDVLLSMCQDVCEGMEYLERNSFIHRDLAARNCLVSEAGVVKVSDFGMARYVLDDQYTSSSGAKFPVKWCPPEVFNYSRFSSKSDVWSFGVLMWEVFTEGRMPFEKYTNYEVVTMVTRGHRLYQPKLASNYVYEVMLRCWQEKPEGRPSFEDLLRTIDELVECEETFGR
# Chain of UniProt P42684 (whole entry, looked up): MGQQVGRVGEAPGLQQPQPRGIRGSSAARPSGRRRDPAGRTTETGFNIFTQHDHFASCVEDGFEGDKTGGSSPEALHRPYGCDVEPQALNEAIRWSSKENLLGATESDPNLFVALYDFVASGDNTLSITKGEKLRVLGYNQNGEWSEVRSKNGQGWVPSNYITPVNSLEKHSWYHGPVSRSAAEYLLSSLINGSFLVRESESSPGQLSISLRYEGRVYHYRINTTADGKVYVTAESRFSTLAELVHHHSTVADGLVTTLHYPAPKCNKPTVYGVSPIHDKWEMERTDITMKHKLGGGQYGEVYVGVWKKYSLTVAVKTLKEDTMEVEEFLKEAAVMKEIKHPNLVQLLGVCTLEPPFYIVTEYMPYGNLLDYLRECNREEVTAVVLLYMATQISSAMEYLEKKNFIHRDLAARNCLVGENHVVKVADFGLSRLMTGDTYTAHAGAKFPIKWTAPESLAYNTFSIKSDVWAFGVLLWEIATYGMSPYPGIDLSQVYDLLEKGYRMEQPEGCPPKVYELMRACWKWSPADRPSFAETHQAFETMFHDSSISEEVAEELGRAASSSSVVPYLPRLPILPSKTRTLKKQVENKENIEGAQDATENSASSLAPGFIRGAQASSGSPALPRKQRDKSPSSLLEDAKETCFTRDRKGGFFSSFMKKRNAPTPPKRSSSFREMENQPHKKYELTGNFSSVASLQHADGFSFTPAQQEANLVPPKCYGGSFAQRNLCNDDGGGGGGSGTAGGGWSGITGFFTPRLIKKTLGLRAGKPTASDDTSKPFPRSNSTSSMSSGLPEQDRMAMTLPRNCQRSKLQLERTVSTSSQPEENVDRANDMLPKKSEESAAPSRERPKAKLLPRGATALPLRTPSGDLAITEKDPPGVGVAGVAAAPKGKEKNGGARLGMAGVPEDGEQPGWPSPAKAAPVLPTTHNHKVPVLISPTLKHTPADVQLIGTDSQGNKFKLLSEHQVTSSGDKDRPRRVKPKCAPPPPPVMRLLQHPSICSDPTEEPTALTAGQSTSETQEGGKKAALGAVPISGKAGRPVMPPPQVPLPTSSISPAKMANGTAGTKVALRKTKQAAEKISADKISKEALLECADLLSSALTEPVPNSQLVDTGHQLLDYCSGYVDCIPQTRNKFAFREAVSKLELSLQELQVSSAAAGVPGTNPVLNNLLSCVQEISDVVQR

# Sample 1
# Cell line: HaCaT
# Tested at: 100 µM
# Time: 36 h
Structure (SMILES),viability [%]
NC[C@@H]1O[C@H](O[C@H]2[C@@H](O)[C@H](O[C@@H]3[C@@H](O)[C@H](N)C[C@H](N)[C@H]3O[C@H]3O[C@H](CO)[C@@H](O)[C@H](O)[C@H]3N)O[C@@H]2CO)[C@H](N)[C@@H](O)[C@@H]1O,86.3
COc1cc2nc(N3CCN(C(=O)C4COc5ccccc5O4)CC3)nc(N)c2cc1OC (stereo not shown),5.73
CCCC(=O)OCOC(=O)C1=C(C)NC(C)=C(C(=O)OC)C1c1cccc(Cl)c1Cl (stereo not shown),39.8
O=C(COc1ccc(Cl)cc1)N1CCN(Cc2ccc3c(c2)OCO3)CC1,53
Nc1ccn([C@@H]2O[C@H](CO)[C@@H](O)C2(F)F)c(=O)n1,26.3
COC(=O)C1=C(C)NC(C)=C(C(=O)OC(C)C)C1c1cccc2nonc12 (stereo not shown),39.9
CCN(CCCCOC(=O)c1ccc(OC)c(OC)c1)C(C)Cc1ccc(OC)cc1 (stereo not shown),28.2
CC[C@H](C)C(=O)O[C@H]1C[C@H](O)C=C2C=C[C@H](C)[C@H](CC[C@@H](O)C[C@@H](O)CC(=O)O)[C@H]21,99.2
CCCCC(CC)CN1CN(CC(CC)CCCC)CC(C)(N)C1 (stereo not shown),2.9
CCCN[C@H]1CCc2nc(N)sc2C1,90.4
CO/N=C(\C(=O)N[C@@H]1C(=O)N2C(C(=O)OC(C)OC(C)=O)=C(COC(N)=O)CS[C@H]12)c1ccco1 (stereo partly shown),111
Cc1noc(NS(=O)(=O)c2ccc(N)cc2)c1C,58.9
CCCCC(=O)O[C@]1(C(=O)CO)CC[C@H]2[C@@H]3CCC4=CC(=O)CC[C@]4(C)[C@H]3[C@@H](O)C[C@@]21C,52.8
COC1C(OC(N)=O)C(O)C(Oc2ccc3c(O)c(NC(=O)c4ccc(O)c(CC=C(C)C)c4)c(=O)oc3c2C)OC1(C)C (stereo not shown),81.5
CC(C)c1cc2c(cc1S(=O)(=O)O)[C@@]1(C)CCC[C@@](C)(C(=O)O)[C@@H]1CC2,92.9
N[C@@H](C(=O)N[C@@H]1C(=O)N2C(C(=O)O)=C(Cl)CS[C@H]12)c1ccccc1,98.3
C[C@H](CCC(=O)O)[C@H]1CC[C@H]2[C@@H]3C(=O)C[C@@H]4CC(=O)CC[C@]4(C)[C@H]3CC(=O)[C@]12C,82.6
CC(C)(S)C(N)C(=O)O (racemic),82

# Sample 2
# Structure (SMILES): CC(=O)c1c(NS(C)(=O)=O)c2cc(-c3ccc(Cl)cc3)c(-c3ccc(Cl)cc3Cl)nc2n(C)c1=O
# Read-out: cell-free assay
# Technique: competition with immobilised ligand
# Tested at: 1 µM
target,remaining binding [%]
"Rho-associated protein kinase 2 (ROCK2, Homo sapiens, UniProt O75116)",100
"Calcium/calmodulin-dependent protein kinase type 1 (CAMK1, Homo sapiens, UniProt Q14012)",100
"Serine/threonine-protein kinase Nek6 (NEK6, Homo sapiens, UniProt Q9HC98)",100
"Serine/threonine-protein kinase ICK (CILK1, Homo sapiens, UniProt Q9UPZ9)",77
"Death-associated protein kinase 3 (DAPK3, Homo sapiens, UniProt O43293)",100
"Dual serine/threonine and tyrosine protein kinase (DSTYK, Homo sapiens, UniProt Q6XUX3)",100
"Interferon-induced, double-stranded RNA-activated protein kinase (EIF2AK2, Homo sapiens, UniProt P19525)",100
"Serine/threonine-protein kinase N2 (PKN2, Homo sapiens, UniProt Q16513)",76
"Serine/threonine-protein kinase RIO3 (RIOK3, Homo sapiens, UniProt O14730)",96
"Cyclin-dependent kinase 4, with cyclin D3 (CDK4, Homo sapiens, UniProt P11802)",94
"Cyclin-dependent kinase 14 (CDK14, Homo sapiens, UniProt O94921)",100
"Tyrosine-protein kinase ABL2 (ABL2, Homo sapiens, UniProt P42684)",100
"Serine/threonine-protein kinase 32A (STK32A, Homo sapiens, UniProt Q8WU08)",87
"Interleukin-1 receptor-associated kinase 3 (IRAK3, Homo sapiens, UniProt Q9Y616)",100
"Casein kinase I isoform epsilon (CSNK1E, Homo sapiens, UniProt P49674)",100
"Bone morphogenetic protein receptor type-1A (BMPR1A, Homo sapiens, UniProt P36894)",95
"Serine/threonine-protein kinase TNNI3K (TNNI3K, Homo sapiens, UniProt Q59H18)",100
"Phosphatidylinositol 3-kinase catalytic subunit type 3 (PIK3C3, Homo sapiens, UniProt Q8NEB9)",93
"Activin receptor type-2A (ACVR2A, Homo sapiens, UniProt P27037)",100
"Receptor-type tyrosine-protein kinase FLT3 (FLT3, Homo sapiens, UniProt P36888, D835V)",89
"cGMP-dependent protein kinase 2 (PRKG2, Homo sapiens, UniProt Q13237)",100
"Tyrosine-protein kinase Tec (TEC, Homo sapiens, UniProt P42680)",100
"Cyclin-dependent kinase 15 (CDK15, Homo sapiens, UniProt Q96Q40)",100
"Macrophage colony-stimulating factor 1 receptor, autoinhibited (CSF1R, Homo sapiens, UniProt P07333)",100
"Cyclin-dependent kinase 2 (CDK2, Homo sapiens, UniProt P24941)",100

# Sample 3
# Target: Calcium/calmodulin-dependent protein kinase type II subunit alpha (CAMK2A, Homo sapiens, UniProt Q9UQM7)
# Chain of UniProt Q9UQM7 (whole entry, looked up): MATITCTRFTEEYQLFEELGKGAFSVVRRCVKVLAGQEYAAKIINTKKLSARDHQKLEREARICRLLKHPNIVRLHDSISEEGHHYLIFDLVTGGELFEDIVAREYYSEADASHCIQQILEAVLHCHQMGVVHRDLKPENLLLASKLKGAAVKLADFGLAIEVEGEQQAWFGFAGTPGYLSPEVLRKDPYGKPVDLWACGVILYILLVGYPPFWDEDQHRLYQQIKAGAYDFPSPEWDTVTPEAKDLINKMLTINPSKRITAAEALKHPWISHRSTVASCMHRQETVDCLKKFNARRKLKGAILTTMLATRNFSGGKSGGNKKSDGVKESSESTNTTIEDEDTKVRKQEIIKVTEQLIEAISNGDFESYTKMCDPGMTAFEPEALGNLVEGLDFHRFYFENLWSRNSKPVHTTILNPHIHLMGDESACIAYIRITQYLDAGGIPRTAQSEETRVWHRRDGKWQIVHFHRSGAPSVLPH
# Read-out: enzyme activity
# Action: inhibitor
# Tested at: 10 µM
Structure (SMILES),inhibition [%]
Cn1cnc([N+](=O)[O-])c1Sc1ncnc2[nH]cnc12,-1
CN(C)C(=O)Oc1ccc[n+](C)c1,-4
CN1c2ccccc2C(=O)N2CCc3c([nH]c4ccccc34)[C@H]21,3
Cc1ccccc1-c1cc(N2CCN(C)CC2)ncc1N(C)C(=O)C(C)(C)c1cc(C(F)(F)F)cc(C(F)(F)F)c1,-2
CC1(C)C(C=C(Cl)Cl)C1C(=O)OCc1cccc(Oc2ccccc2)c1 (stereo not shown),0
CS(=O)(=O)OCCCCOS(C)(=O)=O,-4
CN(C)CCOC(C)(c1ccccc1)c1ccccn1 (stereo not shown),-5
CC1(C)CC[C@]2(C(=O)O)CC[C@]3(C)C(=CC[C@@H]4[C@@]5(C)CCC(=O)C(C)(C)[C@@H]5CC[C@]43C)[C@@H]2C1,-26
Cc1nc2c(O[C@H]3CCOc4cc(F)cc(F)c43)cc(C(=O)N(C)C)cc2[nH]1,-4
CCCCCCO,-5
[N-]=[N+]=N[C@]1(CO)O[C@@H](n2ccc(N)nc2=O)[C@@H](F)[C@@H]1O,-14
CCN(CC)C(=O)c1cccc(C)c1,2
CN1CC[C@]23c4ccccc4N[C@H]1[C@]21CCN(C)[C@H]3Nc2ccccc21,-13
Nc1ccc(S(N)(=O)=O)cc1,7

# Sample 4
# Target: Receptor-interacting serine/threonine-protein kinase 2 (RIPK2, Homo sapiens, UniProt O43353)
# Chain of UniProt O43353 (whole entry, looked up): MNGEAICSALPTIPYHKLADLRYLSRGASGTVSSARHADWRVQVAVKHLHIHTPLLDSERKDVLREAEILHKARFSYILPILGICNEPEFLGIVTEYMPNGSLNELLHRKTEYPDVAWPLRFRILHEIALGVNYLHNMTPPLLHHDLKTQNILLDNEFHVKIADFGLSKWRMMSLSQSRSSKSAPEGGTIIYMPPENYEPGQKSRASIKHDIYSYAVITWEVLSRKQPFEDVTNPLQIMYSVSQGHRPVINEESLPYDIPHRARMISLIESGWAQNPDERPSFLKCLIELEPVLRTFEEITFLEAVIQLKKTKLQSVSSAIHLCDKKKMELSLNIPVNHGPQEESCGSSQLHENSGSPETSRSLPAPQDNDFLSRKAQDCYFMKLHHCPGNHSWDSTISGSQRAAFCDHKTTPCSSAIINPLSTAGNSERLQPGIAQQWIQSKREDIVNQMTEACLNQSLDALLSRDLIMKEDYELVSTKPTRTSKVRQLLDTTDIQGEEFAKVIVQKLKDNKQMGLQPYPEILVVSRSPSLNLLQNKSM
# Read-out: enzyme activity
# Action: inhibitor
# Tested at: 0.5 µM
# Relative to: control
SMILES,remaining activity [%]
CC(C)(C)n1nc(Cc2cccc3ccccc23)c2c(N)ncnc21,62.6
Nc1ncnc2c1cnn2-c1ccccc1,93.1
CSc1nc(-c2ccnc(N[C@@H](C)c3ccccc3)c2)c(-c2ccc(F)cc2)[nH]1 (racemic),85.1
NC(=O)c1ccc(N(C(N)=O)c2c(F)cccc2F)nc1-c1ccc(F)cc1F,101
COc1cc(Nc2c(C#N)cnc3cc(OCCCN4CCN(C)CC4)c(OC)cc23)c(Cl)cc1Cl,111
CC(=O)c1ccc(N2CCOCC2)cc1O,103
CC#CC(=O)Nc1cc2c(Nc3ccc(F)c(Cl)c3)ncnc2cn1,38.7
COc1ccc(S(=O)(=O)N(CCO)c2ccccc2CN(C)CC=Cc2ccc(Cl)cc2)cc1,87
CCc1[nH]c(-c2ccc(OC)cc2)nc1-c1ccncc1,95
N#CC(=C(N)Sc1ccc(N)cc1)c1ccccc1C(F)(F)F,91
Cc1ccc(NC2=CC(=O)c3sc(C)nc3C2=O)cc1,95.2
Fc1ccc(-c2nc3n(c2-c2ccncc2)CCS3)cc1,84.7
Nc1nc(Nc2ccc(S(N)(=O)=O)cc2)nn1C(=O)c1c(F)cccc1F,77.8
O=S(=O)(NCCNC/C=C/c1ccc(Br)cc1)c1cccc2cnccc12,77.8
O=C1NC(=O)C(c2c[nH]c3ccccc23)=C1c1c[nH]c2ccccc12,97
Cc1cncc2cccc(S(=O)(=O)N3CCCN(C(=O)CN)C[C@@H]3C)c12,94.4
CC[n+]1c(/C=C/N(C)c2ccccc2)n(-c2ccccc2)c2ccc(-c3nc4ccccc4s3)cc21,88.6
O=C1Cc2c([nH]c3ccc([N+](=O)[O-])cc23)-c2ccccc2N1,43.4
Oc1ccc(Nc2nc(-c3ccc(Cl)cc3)cs2)cc1,96.4
Cc1cc(Nc2nc(-c3ccccc3)nc3ccccc23)n[nH]1,70.4
CCCC(=O)Oc1ccc2[nH]c(C(=O)c3cc4ccccc4[nH]3)cc2c1,90
Nc1nccc(-c2c(-c3ccc(F)cc3)ncn2C2CCNCC2)n1,77.2

# A few entries again (sample 1):
Structure (SMILES),viability [%]
CC(C)(S)C(N)C(=O)O (racemic),82
CCCN[C@H]1CCc2nc(N)sc2C1,90.4
NC[C@@H]1O[C@H](O[C@H]2[C@@H](O)[C@H](O[C@@H]3[C@@H](O)[C@H](N)C[C@H](N)[C@H]3O[C@H]3O[C@H](CO)[C@@H](O)[C@H](O)[C@H]3N)O[C@@H]2CO)[C@H](N)[C@@H](O)[C@@H]1O,86.3
CCCC(=O)OCOC(=O)C1=C(C)NC(C)=C(C(=O)OC)C1c1cccc(Cl)c1Cl (stereo not shown),39.8
CCN(CCCCOC(=O)c1ccc(OC)c(OC)c1)C(C)Cc1ccc(OC)cc1 (stereo not shown),28.2
